{"data": "Results of several laboratories", "note": "Every numbered part comes from another study and shows a few of its results, in no order. Substitutions count along the parent as printed."}
{"data": "Series 1", "target": "RNA binding protein fox-1 homolog 2, RRM domain, GST-SBP tag (RBFOX2, Homo sapiens, UniProt O43251-10, residues 100-194)", "method": "RNA Bind-n-Seq", "form": "RNA", "sample": "in vitro", "concentration": "365 nM", "notes": "natural RNA segment, single round, ends assumed", "reference": "no-protein control", "direction": "higher = stronger binding", "shared flanks, not repeated": "GGGAGUUCUACAGUCCGACGAUC … UGGAAUUCUCGGGUGCCAA"}
{"Oligonucleotide": "GUUGUCAAAUUGAUUAGUUUGCCUAAUUCAUGUUUUCACUUAAAAGUAUCAGAGGUGAAUGCACAGUGAAGGGUGAUUUGUGGGGAGGGAGCAUUUUUGGUGGUCUUGGG", "RBNS enrichment (R)": 2.13}
{"Oligonucleotide": "UUGGAUUUUUUUUUUUUUUAAAUAAAGACCUUAUCUGCCGAAUUUAAUUGUAGAGAUUUGAACCCGAUCAAAGAAAUUUUGAGUUCUCUCAAAUACCAUAAAAGUGUUUG", "RBNS enrichment (R)": 0.401}
{"Oligonucleotide": "AAUUGAGCUCACACUAUAUAAUCUUUAUUGUCCUAUCCUGAUGUAUAAUACAGCAGGUAUAAUUACACCAAGCGCUAUAGUUAUAAAUAUGGCAUGAAGUGAACUAUGGC", "RBNS enrichment (R)": 0.428}
{"Oligonucleotide": "AUGGGGAACACGUGUUCAUUCAUUAAGUCCAUCUUGCGUGCAGCUAUAUCCCUGAUUGGUUAUUUUUCCUUUCCUUCUGAGGUUCUCAUGUCAUUUUCUUCAUCGGAUGU", "RBNS enrichment (R)": 0.402}
{"Oligonucleotide": "GGCAAGGAGAGGCGUGGACACCGGCCACAGGUGUGCCCGAGCCCCAUCCUACCUGAGUCUCUGUCUCCCUCUCUGGAUAUGUGCGUCCCCACUCCCACCAGCCUACCACC", "RBNS enrichment (R)": 0.405}
{"Oligonucleotide": "ACCUGGCGCAGGCCUCCCAGGAGCUCCAGUGCAGCCCCAUCCCAGGAUGGGUGUCUGGGGAGGGUCAAGGGCUGGGGCUGAGCUUUAAAAUGGUUCCGACUUGUCCCUCU", "RBNS enrichment (R)": 0.416}
{"Oligonucleotide": "AUUACUUGUACGAUGAAGGAUGCCUUUAAAAAAAAAUCAAAAUAAAUUAAACUGGUAAUGUUGAAUGAUAUGAGGUGAAAUCUUUAAUUUCUGCUUUGAUGUAAGAGAGA", "RBNS enrichment (R)": 1.06}
{"Oligonucleotide": "CACAAGGAAUCUCUUAGAGUUUUGCAGCAAACAGGUGGUGCACAGGUCUGGAAGGUCUGGUCUCCCUUGGUCUUCCAUGGGAUGCUUAAUGUGGAGGGGAGAUAGAGAUU", "RBNS enrichment (R)": 1.81}
{"data": "Series 2", "target": "CCNE2, cyclin fold, Cln2 fusion (human)", "method": "yeast growth competition, sequencing", "sample": "yeast", "notes": "weak parent motif", "reference": "not given", "direction": "higher = stronger binding", "parent": "ORC1 docking peptide (human); PRARKRLELGNLG; partner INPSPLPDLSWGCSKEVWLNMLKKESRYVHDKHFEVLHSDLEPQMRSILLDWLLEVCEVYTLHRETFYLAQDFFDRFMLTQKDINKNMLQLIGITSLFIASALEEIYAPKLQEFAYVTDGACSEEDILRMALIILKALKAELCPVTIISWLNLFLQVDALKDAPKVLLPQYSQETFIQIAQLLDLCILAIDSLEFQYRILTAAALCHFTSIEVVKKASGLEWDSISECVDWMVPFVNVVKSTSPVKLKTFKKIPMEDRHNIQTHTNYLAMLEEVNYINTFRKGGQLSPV"}
{"Variant": "PRARTRLELGNLG [K5T]", "normalised enrichment score": -0.0327}
{"Variant": "PRARKRLELGNLD [G13D]", "normalised enrichment score": 0.375}
{"Variant": "PKARKRLELGNLG [R2K]", "normalised enrichment score": 0.404}
{"Variant": "PRARKRLELGNLM [G13M]", "normalised enrichment score": 1.81}
{"Variant": "PRARKRLELGNVG [L12V]", "normalised enrichment score": 0.571}
{"Variant": "PRAVKRLELGNLG [R4V]", "normalised enrichment score": 0.445}
{"Variant": "PRARKRIELGNLG [L7I]", "normalised enrichment score": 1.09}
{"Variant": "PRARKRLEWGNLG [L9W]", "normalised enrichment score": 0.998}
{"Variant": "PRARKRLHLGNLG [E8H]", "normalised enrichment score": 0.138}
{"Variant": "PRARKRLELTNLG [G10T]", "normalised enrichment score": -0.161}
{"Variant": "PRARKRLELGFLG [N11F]", "normalised enrichment score": 0.547}
{"Variant": "PRARNRLELGNLG [K5N]", "normalised enrichment score": 0.393}
{"Variant": "PRARKQLELGNLG [R6Q]", "normalised enrichment score": 0.114}
{"Variant": "PRNRKRLELGNLG [A3N]", "normalised enrichment score": 1.19}
{"Variant": "CRARKRLELGNLG [P1C]", "normalised enrichment score": 1.29}
{"Variant": "PRARKRLEPGNLG [L9P]", "normalised enrichment score": -0.468}
{"Variant": "PRARKSLELGNLG [R6S]", "normalised enrichment score": 0.281}
{"Variant": "PRARKRLELGNKG [L12K]", "normalised enrichment score": 0.785}
{"Variant": "PRARKRLELGNLE [G13E]", "normalised enrichment score": -0.0568}
{"Variant": "PRAFKRLELGNLG [R4F]", "normalised enrichment score": 1.14}
{"Variant": "PRARHRLELGNLG [K5H]", "normalised enrichment score": 0.306}
{"Variant": "PRARKRSELGNLG [L7S]", "normalised enrichment score": 1.32}
{"Variant": "PRARKRLEGGNLG [L9G]", "normalised enrichment score": 0.596}
{"Variant": "PRARKRLEDGNLG [L9D]", "normalised enrichment score": 0.513}
{"Variant": "PRARKRLILGNLG [E8I]", "normalised enrichment score": 0.823}
{"data": "Series 3", "target": "Interferon regulatory factor 5, full length, phosphomimetic (IRF5, Homo sapiens, UniProt Q13568-2, residues 1-514, S451D/S453D/S456D/S462D)", "method": "protein-binding microarray", "form": "double-stranded DNA, one strand shown", "sample": "in vitro", "concentration": "940 nM top", "notes": "60-bp whole probe", "with": "salmon DNA 0.4 mg/ml", "reference": "random background probes", "direction": "higher = stronger binding", "shared flanks, not repeated": "GCCTAGCAC … GTCTTGATTCGCTTGACGCTGCTG"}
{"Oligonucleotide": "GACGGTACCGGGTATCGGGACGTGCTA", "fitted relative affinity [z-score]": 0.842}
{"Oligonucleotide": "TTAGATATCAGTCTCGTTTAGTGCTAG", "fitted relative affinity [z-score]": 1.75}
{"Oligonucleotide": "TCAATGTTCCCTATTTAACTGTGCTAG", "fitted relative affinity [z-score]": 1.07}
{"Oligonucleotide": "GACGGTTTCGGTCTCGGGTCGTGCTAG", "fitted relative affinity [z-score]": 15.2}
{"Oligonucleotide": "TTAGGACTGAGTCTCGGTTAGTGCTAG", "fitted relative affinity [z-score]": 2.96}
{"Oligonucleotide": "TCATGATTACATATATGACTGTGCTAG", "fitted relative affinity [z-score]": -0.236}
{"Oligonucleotide": "GACGGCTTCGGACTGGGGACGTGCTAG", "fitted relative affinity [z-score]": -0.593}
{"Oligonucleotide": "ATTCCTTTGCCTCCAGGCGCGTGCTAG", "fitted relative affinity [z-score]": 0.146}
{"Oligonucleotide": "TTAAATATCGGGTATCGATTAGTGCTA", "fitted relative affinity [z-score]": 3.21}
{"Oligonucleotide": "TTAGGTATCGACTAGCGGTTAGTGCTA", "fitted relative affinity [z-score]": 6.36}
{"Oligonucleotide": "TTAGGTTTCGGTTTTCGGTTAGTGCTA", "fitted relative affinity [z-score]": 13.2}
{"Oligonucleotide": "TTAGATCGCAGTCTCGATTAGTGCTAG", "fitted relative affinity [z-score]": 1.98}
{"Oligonucleotide": "ATCTCTGTCCGTGCTCAGCTCGTGCTA", "fitted relative affinity [z-score]": 0.55}
{"Oligonucleotide": "GCTCCAGGAAGCCTTGCCTGGTGCTAG", "fitted relative affinity [z-score]": -0.565}
{"Oligonucleotide": "TGAGATTTCGGGTTTCGATTAGTGCTA", "fitted relative affinity [z-score]": 5.76}
{"Oligonucleotide": "TTAGGTTTCGTTATCGGTTAGTGCTAG", "fitted relative affinity [z-score]": 9.72}
{"Oligonucleotide": "TGTTTTTGCTTTCTTTATGTGTGCTAG", "fitted relative affinity [z-score]": 2.23}
{"Oligonucleotide": "GACGATTTCAGACAGGAGACGTGCTAG", "fitted relative affinity [z-score]": -0.313}
{"Oligonucleotide": "GACGGTTTCAGGTTTCGGGACGTGCTA", "fitted relative affinity [z-score]": 5.75}
{"data": "Series 4", "target": "Histone acetyltransferase KAT6A, both winged helices, GST fusion (KAT6A, Homo sapiens, UniProt Q92794, residues 1-181)", "method": "protein binding microarray", "form": "double-stranded DNA, one strand shown", "sample": "in vitro", "concentration": "not given", "notes": "8-mer, flanks averaged, mean of 2 arrays, mostly near background", "reference": "not given", "direction": "higher = stronger binding", "Target sequence (chain)": "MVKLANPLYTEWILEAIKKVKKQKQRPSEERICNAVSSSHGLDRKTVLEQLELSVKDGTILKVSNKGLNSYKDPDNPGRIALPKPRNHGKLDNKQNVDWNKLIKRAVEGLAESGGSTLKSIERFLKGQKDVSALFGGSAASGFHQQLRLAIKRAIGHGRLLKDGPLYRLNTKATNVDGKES"}
{"Oligonucleotide": "CCTCGTCA", "E-score": -0.0224}
{"Oligonucleotide": "AACTAGCA", "E-score": -0.25}
{"Oligonucleotide": "ATGGCGGG", "E-score": 0.0982}
{"Oligonucleotide": "ATGACTAC", "E-score": -0.0268}
{"Oligonucleotide": "CCCCGGCC", "E-score": 0.205}
{"Oligonucleotide": "CATGTGGG", "E-score": -0.0289}
{"Oligonucleotide": "AAGTAGCA", "E-score": -0.244}
{"Oligonucleotide": "GCTCCCAC", "E-score": -0.0952}
{"Oligonucleotide": "ACAATCCC", "E-score": -0.0346}
{"Oligonucleotide": "CCCCGCGG", "E-score": 0.379}
{"Oligonucleotide": "TAACCGGA", "E-score": 0.145}
{"Oligonucleotide": "CCTCATTA", "E-score": -0.13}
{"Oligonucleotide": "GAGAACAA", "E-score": 0.00668}
{"Oligonucleotide": "AAGGTTGG", "E-score": -0.0554}
{"Oligonucleotide": "AGCAGCGC", "E-score": 0.209}
{"Oligonucleotide": "CATCCTGA", "E-score": -0.0374}
{"Oligonucleotide": "ACCCACAA", "E-score": -0.0903}
{"Oligonucleotide": "GACCAACC", "E-score": 0.0327}
{"Oligonucleotide": "CGGCAACA", "E-score": 0.161}
{"Oligonucleotide": "CCCGCAAA", "E-score": 0.139}
{"Oligonucleotide": "AGCAACCA", "E-score": -0.228}
{"Oligonucleotide": "GTCGGTTA", "E-score": 0.101}
{"Oligonucleotide": "AGTCTGGC", "E-score": -0.167}
{"Oligonucleotide": "AAACACGA", "E-score": -0.0962}
{"Oligonucleotide": "GCAACCAA", "E-score": -0.088}
